{"data": "Experimental data collected from several papers", "note": "Lines come from different studies, so protocols differ."}
{"SMILES": "CC[C@H](C)C(=O)O[C@H]1C[C@H](O)C=C2C=C[C@H](C)[C@H](CC[C@@H](O)C[C@@H](O)CC(=O)O)[C@H]21", "system": "OATP1B1/1B3 humanized mouse", "setting": "oral, dose not given", "measurement": "AUC(0-t)", "result": "1.35 µM·h"}
{"SMILES": "C[C@H](NC(=O)c1c(C(F)F)nn(C)c1Oc1cccc(C(F)(F)F)c1)c1ccc(C(=O)O)cc1", "system": "human, plasma", "setting": "500 mg, cycle 1 day 8, mean", "measurement": "AUC(0-t)", "result": "6060 ng·h/mL"}
{"SMILES": "OCc1ncc2n1-c1ccc(Cl)cc1C(c1ccccc1F)=NC2", "system": "human, plasma", "setting": "oral, 2.5 mg, day 1", "measurement": "AUC(0-t)", "result": "9.6 ng·h/mL"}
{"SMILES": "O=c1ccc2ncc(=O)n3c2n1C[C@H]3CN1CCC(NCc2cc3c(cn2)OCCC3)CC1", "system": "healthy human volunteers, plasma", "setting": "oral, 1500 mg, arithmetic mean, alone", "measurement": "AUC(0-t)", "result": "18000 ng·h/mL"}
{"SMILES": "N#Cc1cn([C@@H]2O[C@H](CO)[C@@H](O)[C@H]2O)c2ncnc(N)c12", "tested on": "human coronavirus OC43", "test": "virus-induced cell killing", "system": "MRC-5", "setting": "screen", "measurement": "maximum inhibition", "result": "11.4%"}
{"SMILES": "COC[C@@H](NC(C)=O)C(=O)NCc1ccccc1", "test": "fluorescence quenching", "system": "human healthy male, plasma", "setting": "oral, 100 mg single, up to 48 h", "measurement": "AUC(0-t)", "result": "45700 ng·h/mL"}
{"SMILES": "OCc1ncc2n1-c1ccc(Cl)cc1C(c1ccccc1F)=NC2", "system": "human, plasma", "setting": "oral, 7.5 mg of midazolam, day 19, geometric mean, no amenamevir", "measurement": "AUC(0-t)", "result": "42.2 ng·h/mL"}
{"SMILES": "COc1ccc(C[C@@H]2NC(=O)[C@H]([C@@H](C)O)NC(=O)[C@@H]3[C@@H]4CCN3C(=O)[C@@H]3Cc5cn(c6ccc(F)cc56)CCCCCCN(Cc5ccc(cc5)CCNC(=O)[C@]5(C)CCCN5C2=O)C(=O)CCC(=O)N[C@@H](C)C(=O)N[C@H](CNC(=O)CCCCC[N+](C)(C)C)C(=O)N[C@@H](Cc2cccc(c2)CNC(=O)CO4)C(=O)N3)cc1", "system": "human, plasma", "setting": "oral, 40 mg, high-fat breakfast 30 min before, with: sodium caprate 720 mg", "measurement": "AUC(0-t)", "result": "0.209 µM·h"}
{"SMILES": "CC(=O)c1c(C)c2cnc(Nc3ccc(C4CCN(CCS(C)(=O)=O)CC4)cn3)nc2n(C2CCCC2)c1=O", "system": "human, plasma", "setting": "oral, 75 mg twice daily, day 21, multiple doses, with: letrozole", "measurement": "AUC(0-t)", "result": "1150 ng·h/mL"}
{"SMILES": "O=C(Cc1ccc(-c2ccc(OCCN3CCOCC3)cc2)cn1)NCc1ccccc1", "tested on": "human coronavirus OC43", "test": "virus-induced cell killing", "system": "MRC-5", "setting": "maximum over 10 doses", "measurement": "maximum inhibition", "result": "0%"}
{"SMILES": "O=C(O)C[C@H](O)C[C@H](O)/C=C/c1c(C2CC2)nc2ccccc2c1-c1ccc(F)cc1", "system": "human, plasma", "setting": "oral, 2 mg", "measurement": "AUC(0-t)", "result": "63.4 ng·h/mL"}
{"note": "Excerpt of the above:"}
{"SMILES": "O=C(O)C[C@H](O)C[C@H](O)/C=C/c1c(C2CC2)nc2ccccc2c1-c1ccc(F)cc1", "system": "human, plasma", "setting": "oral, 2 mg", "measurement": "AUC(0-t)", "result": "63.4 ng·h/mL"}
